Results of several laboratories.
Lines come from different studies, so protocols differ.
Method: steady-state kinetics
B1: enzyme (Bacillus pumilus, UniProt A8FFI9); chain EARSIAWSVDEFFKNREGTFVIQEVKEKSPWVYNKKRAKERFAPQSTFKVANALIGLQTGAVRDEYDIKYWDGVKREIDNWNRDHTLGSGMRDSVVWYYQAMARDIGEERMNHWVKAIHYGNKDISGGIDQFWLSSTLRISPIEQVRFLKQLYEETLPFDLKNMRTVKRMMVQEEEKHATLYGKTGSGSDIGWYVGFIKHEHKTYILATNIKGTGIEAKDITYRILKKYHLMEASV
B2: FNO G29W (Thermobifida fusca, UniProt Q47RA9); chain MIMIMASKSSPHDLPDVSGLSIAVLGGTWDQGRGLARRFAMAGHEVILGSRSAERAQAVAAELGEGLPVRGMDNAGAAEAGDVVIVAVPWDGHRALLESLKDVLAGKIVVDCVNPLGFDKRGAYALPVEEGSAAEQAAAILPDSRVVAAFHHVSAVLLLDPEVEKVDLDVLVLGDDREATDVVRALAARIPGVRGVYGGRLRNAHQVEAFTANLISINRRYKAHAGIRITDI
B3: speck Y220F (Drosophila melanogaster, UniProt Q94521); chain MEDALTVSGKPAACPVDQDCPYTIELIQPEDGEAVIAMLKTFFFKDEPLNTFLDLGECKELEKYSLKPLPDNCSYKAVNKKGEIIGVFLNGLMRRPSPDDVPEKAADSCEHPKFKKILSLMDHVEEQFNIFDVYPDEELILDGKILSVDTNYRGLGIAGRLTERAYEYMRENGINVYHVLCSSHFSARVMEKLGFHEVFRMQFADYKPQGEVVFKPAAPHVGIQVMAKEVGPAKAAQTKL
B4: iodotyrosine deiodinase (Haliscomenobacter hydrossis, UniProt F4KU78); chain MKQKPAFIPYAGAQFEPEEMLSKSAEYYQFMDHRRTVREFSNRAIPLEVIENIVMTASTAPSGAHKQPWTFVVVSDPQIKAKIRQAAEKEEFESYNGRMSNEWLEDLQPFGTDWHKPFLEIAPYLIVVFRKAYDVLPDGTQRKNYYVQESVGIACGFLLAAIHQAGLVALTHTPSPMNFLQKILQRPENERPFLLVPVGYPAEGAMVPDLQRKDKAAVMVVY
B5: enzyme N158A (Sinorhizobium meliloti, UniProt Q92UV7); chain MTNAEVTIAVRHEPMRIAGRLVDTDDRVEVRYPWNDTVVGTVPAGRAEHAREAFAIAAAYQPKLTRYERQKILLATAEALAARKEEISDVITLELGISKADSLYEVGRAFDVFTLAGQMCIRDDGEIFSCDLTPHGKARKIFTMREPLTAISAITPFAHPLNMVAHKVAPAIATNNCVVVKPTELTPMTALLLADILYEAGLPPEMLSVVTGWPADIGMEMITNPHVDLVTFTGSVPVGKLIAANAHYKRQVLELGGNDPLIILNDLSDDDLARAADLAVAGATKNSGQRCTAVKRILCQESVADRFVPLVLERAKRLRFGDPMDRSTDLGTVIHEKAAALFEERVMRAAEEGADILYHPGRSGALLPPIVVDRVPHQSDLVLEETFGPIIPIVRVPDDDDATITLSNSTAFGLSSGVCTNDYRRMQKYIAGLKVGTVNIWEVPGYRIEMSPFGGIKDSGNGYKEGVIEAMKSFTNVKTFSLPWP
B6: FMO1 I303V (Homo sapiens, UniProt Q01740); chain AKRVAIVGAGVSGLASIKCCLEEGLEPTCFERSDDLGGLWRFTEHVEEGRASLYKSVVSNSCKEMSCYSDFPFPEDYPNYVPNSQFLEYLKMYANHFDLLKHIQFKTKVCSVTKCSDSAVSGQWEVVTMHEEKQESAIFDAVMVCTGFLTNPYLPLDSFPGINAFKGQYFHSRQYKHPDIFKDKRVLVIGMGNSGTDIAVEASHLAEKVFLSTTGGGWVISRIFDSGYPWDMVFMTRFQNMLRNSLPTPIVTWLMERKINNWLNHANYGLIPEDRTQLKEFVLNDELPGRIITGKVFIRPSVKEVKENSVIFNNTSKEEPIDIIVFATGYTFAFPFLDESVVKVEDGQASLYKYIFPAHLQKPTLAIIGLIKPLGSMIPTGETQARWAVRVLKGVNKLPPPSVMIEEINARKENKPSWFGLCYCKALQSDYITYIDELLTYINAKPNLFSMLLTDPHLALTVFFGPCSPYQFRLTGPGKWEGARNAIMTQWDRTFKVIKARVVQESPSPFESFLKVFSFLALLVAIFLIFL
B7: PRXC1A (Armoracia rusticana, UniProt P00433); chain QLTPTFYDNSCPNVSNIVRDTIVNELRSDPRIAASILRLHFHDCFVNGCDASILLDNTTSFRTEKDAFGNANSARGFPVIDRMKAAVESACPRTVSCADLLTIAAQQSVTLAGGPSWRVPLGRRDSLQAFLDLANANLPAPFFTLPQLKDSFRNVGLNRSSDLVALSGGHTFGKNQCRFIMDRLYNFSNTGLPDPTLNTTYLQTLRGLCPLNGNLSALVDFDLRTPTIFDNKYYVNLEEQKGLIQSDQELFSSPNATDTIPLVRSFANSTQTFFNAFVEAMDRMGNITPLTGTQGQIRLNCRVVNSNS
Sequence of UniProt P10724 (whole entry, looked up): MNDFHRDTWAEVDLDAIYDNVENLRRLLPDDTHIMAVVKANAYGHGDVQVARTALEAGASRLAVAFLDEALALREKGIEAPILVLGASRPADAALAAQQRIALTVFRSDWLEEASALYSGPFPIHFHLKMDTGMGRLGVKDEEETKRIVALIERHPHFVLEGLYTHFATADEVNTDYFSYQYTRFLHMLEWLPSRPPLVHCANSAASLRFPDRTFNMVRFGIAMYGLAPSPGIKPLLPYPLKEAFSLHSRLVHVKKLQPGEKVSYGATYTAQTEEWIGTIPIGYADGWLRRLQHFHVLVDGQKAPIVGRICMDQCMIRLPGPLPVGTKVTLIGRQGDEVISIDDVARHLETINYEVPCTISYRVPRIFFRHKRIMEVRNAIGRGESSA
Sequence of UniProt O60656 (whole entry, looked up): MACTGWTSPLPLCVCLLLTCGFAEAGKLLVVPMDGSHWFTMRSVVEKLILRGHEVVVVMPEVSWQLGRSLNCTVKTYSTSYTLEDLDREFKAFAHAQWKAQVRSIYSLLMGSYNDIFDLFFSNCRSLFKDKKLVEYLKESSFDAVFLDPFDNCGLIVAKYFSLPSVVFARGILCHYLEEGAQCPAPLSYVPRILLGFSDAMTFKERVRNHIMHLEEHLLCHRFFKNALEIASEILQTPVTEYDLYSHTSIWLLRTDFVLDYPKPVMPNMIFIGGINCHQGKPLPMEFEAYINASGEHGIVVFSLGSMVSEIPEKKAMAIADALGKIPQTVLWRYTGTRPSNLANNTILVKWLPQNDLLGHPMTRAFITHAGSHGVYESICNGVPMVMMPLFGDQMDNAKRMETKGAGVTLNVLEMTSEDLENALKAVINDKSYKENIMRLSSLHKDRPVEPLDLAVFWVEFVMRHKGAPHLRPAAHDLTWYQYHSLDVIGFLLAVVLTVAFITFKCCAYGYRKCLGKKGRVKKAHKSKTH
Sequence of UniProt Q2RMD6 (whole entry, looked up): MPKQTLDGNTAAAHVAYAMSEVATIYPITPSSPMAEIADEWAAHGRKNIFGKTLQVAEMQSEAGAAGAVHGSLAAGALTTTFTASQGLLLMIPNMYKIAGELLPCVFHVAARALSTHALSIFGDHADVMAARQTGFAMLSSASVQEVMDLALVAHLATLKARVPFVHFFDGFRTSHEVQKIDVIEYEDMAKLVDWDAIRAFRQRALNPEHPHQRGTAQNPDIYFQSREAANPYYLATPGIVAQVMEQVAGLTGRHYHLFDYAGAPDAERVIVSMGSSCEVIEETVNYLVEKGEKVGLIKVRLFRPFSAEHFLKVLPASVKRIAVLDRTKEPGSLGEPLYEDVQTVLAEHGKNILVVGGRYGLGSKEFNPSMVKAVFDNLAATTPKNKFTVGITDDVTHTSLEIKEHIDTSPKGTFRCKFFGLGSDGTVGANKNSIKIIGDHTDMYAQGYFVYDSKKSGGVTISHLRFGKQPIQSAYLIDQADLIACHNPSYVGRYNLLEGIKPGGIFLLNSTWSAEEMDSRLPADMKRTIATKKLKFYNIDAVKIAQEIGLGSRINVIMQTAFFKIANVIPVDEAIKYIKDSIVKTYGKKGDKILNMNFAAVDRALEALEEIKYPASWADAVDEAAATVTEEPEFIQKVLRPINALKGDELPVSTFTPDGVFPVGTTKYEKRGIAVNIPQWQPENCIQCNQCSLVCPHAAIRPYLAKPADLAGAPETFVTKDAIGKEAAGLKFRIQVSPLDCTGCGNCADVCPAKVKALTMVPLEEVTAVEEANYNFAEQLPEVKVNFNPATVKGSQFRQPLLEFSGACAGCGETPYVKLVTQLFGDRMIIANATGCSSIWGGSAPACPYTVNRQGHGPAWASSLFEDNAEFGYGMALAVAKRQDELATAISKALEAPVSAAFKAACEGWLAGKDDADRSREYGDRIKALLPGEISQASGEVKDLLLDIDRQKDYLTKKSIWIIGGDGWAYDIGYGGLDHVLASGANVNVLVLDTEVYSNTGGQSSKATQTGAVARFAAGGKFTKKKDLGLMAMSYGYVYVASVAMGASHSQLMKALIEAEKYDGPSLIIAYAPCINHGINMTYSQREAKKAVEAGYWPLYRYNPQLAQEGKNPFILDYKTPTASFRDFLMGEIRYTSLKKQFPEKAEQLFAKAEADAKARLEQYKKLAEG
Sequence of UniProt P12081 (whole entry, looked up): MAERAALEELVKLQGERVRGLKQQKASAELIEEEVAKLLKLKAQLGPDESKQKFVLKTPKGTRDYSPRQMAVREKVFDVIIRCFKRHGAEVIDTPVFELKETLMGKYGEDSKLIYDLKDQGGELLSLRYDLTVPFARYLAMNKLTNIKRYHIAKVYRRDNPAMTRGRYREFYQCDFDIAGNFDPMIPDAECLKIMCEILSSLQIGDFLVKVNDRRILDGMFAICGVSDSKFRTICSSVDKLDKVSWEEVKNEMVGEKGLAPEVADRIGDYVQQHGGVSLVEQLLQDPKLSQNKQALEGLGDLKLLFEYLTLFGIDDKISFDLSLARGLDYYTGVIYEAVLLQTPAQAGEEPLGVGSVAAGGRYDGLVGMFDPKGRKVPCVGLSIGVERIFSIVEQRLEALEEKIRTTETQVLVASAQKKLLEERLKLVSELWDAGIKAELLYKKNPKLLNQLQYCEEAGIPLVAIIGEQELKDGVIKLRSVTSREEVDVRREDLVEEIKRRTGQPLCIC

Molecule	substrate	system	conditions	Km [µM]
UGT1A9 (Homo sapiens, UniProt O60656)	CC(C)c1cccc(C(C)C)c1O		pH 7.4, 37 °C	26
B1 (enzyme)	C[C@H]1[C@H](NC(=O)/C(=N\OC(C)(C)C(=O)O)c2csc(N)n2)C(=O)N1S(=O)(=O)O		pH 7	35
B2 (FNO G29W)	NC(=O)c1ccc[n+](Cc2ccccc2)c1		pH 8, 25 °C, added: F420H2 40 µM	4300
HARS1 (Homo sapiens, UniProt P12081)	N[C@@H](Cc1c[nH]cn1)C(=O)O		pH 7.5, 37 °C, KCl 150 mM, added: tRNA(His)	8
B3 (speck Y220F)	CC(=O)SCCNC(=O)CCNC(=O)[C@H](O)C(C)(C)COP(=O)(O)OP(=O)(O)OC[C@H]1O[C@@H](n2cnc3c(N)ncnc32)[C@H](O)[C@@H]1OP(=O)(O)O		pH 7.2, 30 °C	430
PFOR (Moorella thermoacetica, UniProt Q2RMD6)	CC(=O)C(=O)O		pH 7.6, no magnesium, added: CoA 1 mM, methyl viologen 10 mM, TPP 1 mM	490
B4 (iodotyrosine deiodinase)	N[C@@H](Cc1cc(F)c(O)c(I)c1)C(=O)O		pH 7.4, 25 °C	38
B5 (enzyme N158A)	NC(=O)c1ccc[n+]([C@@H]2O[C@H](COP(=O)(O)OP(=O)(O)OC[C@H]3O[C@@H](n4cnc5c(N)ncnc54)[C@H](O)[C@@H]3O)[C@@H](O)[C@H]2O)c1		pH 7.5, 30 °C, cofactor varied	40
B6 (FMO1 I303V)	CN1CCC[C@H]1c1cccnc1	HEK293 microsomes	37 °C, not purified, added: NADPH regenerating system	1800
B7 (PRXC1A)	CCn1c(=NN=c2sc3cc(S(=O)(=O)O)ccc3n2CC)sc2cc(S(=O)(=O)O)ccc21		apparent	412
alanine racemase (Geobacillus stearothermophilus, UniProt P10724)	C[C@@H](N)C(=O)O		pH 9, room temperature, added: NAD+ 10 mM	2200
Ptb (Listeria monocytogenes, UniProt Q8Y7B7)	CC(=O)SCCNC(=O)CCNC(=O)[C@H](O)C(C)(C)COP(=O)(O)OP(=O)(O)OC[C@H]1O[C@@H](n2cnc3c(N)ncnc32)[C@H](O)[C@@H]1OP(=O)(O)O		pH 7.5, 25 °C, apparent, poor fit	992

Repeated from above:
Molecule	substrate	system	conditions	Km [µM]
B6 (FMO1 I303V)	CN1CCC[C@H]1c1cccnc1	HEK293 microsomes	37 °C, not purified, added: NADPH regenerating system	1800
